# Assay results collected from several papers.
# Every numbered part comes from another study and shows a few of its results, in no order. Several values in a cell are separate wells, animals, samples, runs or records.
# Sequence of UniProt Q5BJF2 (whole entry, looked up): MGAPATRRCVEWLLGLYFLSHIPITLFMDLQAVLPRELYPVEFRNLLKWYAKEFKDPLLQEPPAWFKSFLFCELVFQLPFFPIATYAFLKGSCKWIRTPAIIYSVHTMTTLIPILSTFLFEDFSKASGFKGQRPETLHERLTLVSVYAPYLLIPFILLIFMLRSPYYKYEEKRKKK
# Sequence of UniProt P35368 (whole entry, looked up): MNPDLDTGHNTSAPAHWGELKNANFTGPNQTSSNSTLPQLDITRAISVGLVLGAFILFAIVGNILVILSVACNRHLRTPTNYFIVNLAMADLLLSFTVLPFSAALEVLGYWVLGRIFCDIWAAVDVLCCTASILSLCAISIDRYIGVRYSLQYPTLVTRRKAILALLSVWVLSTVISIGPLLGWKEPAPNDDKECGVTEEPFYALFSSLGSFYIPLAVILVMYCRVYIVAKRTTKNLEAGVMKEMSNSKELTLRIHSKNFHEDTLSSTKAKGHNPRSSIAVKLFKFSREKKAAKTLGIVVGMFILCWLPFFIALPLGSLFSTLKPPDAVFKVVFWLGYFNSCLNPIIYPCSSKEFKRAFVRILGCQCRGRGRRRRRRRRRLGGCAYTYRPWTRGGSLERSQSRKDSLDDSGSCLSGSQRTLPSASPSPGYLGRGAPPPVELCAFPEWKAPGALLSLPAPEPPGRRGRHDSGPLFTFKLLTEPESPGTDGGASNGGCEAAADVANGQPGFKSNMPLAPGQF
# Sequence of UniProt P08912 (whole entry, looked up): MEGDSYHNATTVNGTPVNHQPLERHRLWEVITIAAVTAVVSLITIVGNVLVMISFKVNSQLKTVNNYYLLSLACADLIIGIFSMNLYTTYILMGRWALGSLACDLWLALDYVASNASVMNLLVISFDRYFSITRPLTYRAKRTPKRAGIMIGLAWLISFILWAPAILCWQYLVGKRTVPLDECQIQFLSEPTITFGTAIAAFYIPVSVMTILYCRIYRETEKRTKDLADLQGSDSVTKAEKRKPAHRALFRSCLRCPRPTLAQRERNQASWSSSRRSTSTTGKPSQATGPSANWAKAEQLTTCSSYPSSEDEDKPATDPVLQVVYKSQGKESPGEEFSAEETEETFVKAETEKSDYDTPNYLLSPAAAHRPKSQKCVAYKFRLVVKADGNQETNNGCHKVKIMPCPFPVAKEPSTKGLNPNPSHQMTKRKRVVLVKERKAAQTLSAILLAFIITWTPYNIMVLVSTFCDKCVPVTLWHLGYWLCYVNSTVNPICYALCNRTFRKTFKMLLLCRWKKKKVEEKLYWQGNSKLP
# Sequence of UniProt P08913 (whole entry, looked up): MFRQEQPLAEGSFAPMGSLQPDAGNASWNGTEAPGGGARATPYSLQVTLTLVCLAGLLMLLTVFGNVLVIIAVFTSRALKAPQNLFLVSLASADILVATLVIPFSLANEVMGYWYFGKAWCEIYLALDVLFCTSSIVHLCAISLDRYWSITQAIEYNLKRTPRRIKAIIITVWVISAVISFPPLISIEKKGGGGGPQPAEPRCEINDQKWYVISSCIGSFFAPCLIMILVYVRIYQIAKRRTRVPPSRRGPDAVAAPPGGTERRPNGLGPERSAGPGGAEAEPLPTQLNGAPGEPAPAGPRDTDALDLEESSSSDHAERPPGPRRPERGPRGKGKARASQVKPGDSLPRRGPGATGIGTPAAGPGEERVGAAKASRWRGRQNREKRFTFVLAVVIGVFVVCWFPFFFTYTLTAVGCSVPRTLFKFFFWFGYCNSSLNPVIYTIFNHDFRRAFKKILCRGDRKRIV
# Sequence of UniProt Q9Y5N1 (whole entry, looked up): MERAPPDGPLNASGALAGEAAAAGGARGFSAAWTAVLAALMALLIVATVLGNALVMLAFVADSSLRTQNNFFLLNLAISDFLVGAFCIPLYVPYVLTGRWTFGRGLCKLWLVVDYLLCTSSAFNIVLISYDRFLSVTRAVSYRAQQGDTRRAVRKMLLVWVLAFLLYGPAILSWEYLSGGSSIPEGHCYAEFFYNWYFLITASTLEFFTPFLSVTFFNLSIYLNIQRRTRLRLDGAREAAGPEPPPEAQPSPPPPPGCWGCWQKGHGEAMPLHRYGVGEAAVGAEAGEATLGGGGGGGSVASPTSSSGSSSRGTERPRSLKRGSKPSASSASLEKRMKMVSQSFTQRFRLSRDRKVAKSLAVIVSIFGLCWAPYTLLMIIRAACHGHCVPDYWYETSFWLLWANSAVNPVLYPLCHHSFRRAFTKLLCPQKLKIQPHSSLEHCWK
# Sequence of UniProt Q99720 (whole entry, looked up): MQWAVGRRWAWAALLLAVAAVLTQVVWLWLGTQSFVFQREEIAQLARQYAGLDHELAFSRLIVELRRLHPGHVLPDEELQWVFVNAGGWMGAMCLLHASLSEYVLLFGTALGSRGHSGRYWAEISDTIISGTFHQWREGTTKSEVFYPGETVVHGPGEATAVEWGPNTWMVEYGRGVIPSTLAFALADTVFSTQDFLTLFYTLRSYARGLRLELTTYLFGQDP

# Sample 1
# Target: Platelet-derived growth factor receptor alpha (PDGFRA, Homo sapiens, UniProt P16234)
# Sequence of UniProt P16234 (whole entry, looked up): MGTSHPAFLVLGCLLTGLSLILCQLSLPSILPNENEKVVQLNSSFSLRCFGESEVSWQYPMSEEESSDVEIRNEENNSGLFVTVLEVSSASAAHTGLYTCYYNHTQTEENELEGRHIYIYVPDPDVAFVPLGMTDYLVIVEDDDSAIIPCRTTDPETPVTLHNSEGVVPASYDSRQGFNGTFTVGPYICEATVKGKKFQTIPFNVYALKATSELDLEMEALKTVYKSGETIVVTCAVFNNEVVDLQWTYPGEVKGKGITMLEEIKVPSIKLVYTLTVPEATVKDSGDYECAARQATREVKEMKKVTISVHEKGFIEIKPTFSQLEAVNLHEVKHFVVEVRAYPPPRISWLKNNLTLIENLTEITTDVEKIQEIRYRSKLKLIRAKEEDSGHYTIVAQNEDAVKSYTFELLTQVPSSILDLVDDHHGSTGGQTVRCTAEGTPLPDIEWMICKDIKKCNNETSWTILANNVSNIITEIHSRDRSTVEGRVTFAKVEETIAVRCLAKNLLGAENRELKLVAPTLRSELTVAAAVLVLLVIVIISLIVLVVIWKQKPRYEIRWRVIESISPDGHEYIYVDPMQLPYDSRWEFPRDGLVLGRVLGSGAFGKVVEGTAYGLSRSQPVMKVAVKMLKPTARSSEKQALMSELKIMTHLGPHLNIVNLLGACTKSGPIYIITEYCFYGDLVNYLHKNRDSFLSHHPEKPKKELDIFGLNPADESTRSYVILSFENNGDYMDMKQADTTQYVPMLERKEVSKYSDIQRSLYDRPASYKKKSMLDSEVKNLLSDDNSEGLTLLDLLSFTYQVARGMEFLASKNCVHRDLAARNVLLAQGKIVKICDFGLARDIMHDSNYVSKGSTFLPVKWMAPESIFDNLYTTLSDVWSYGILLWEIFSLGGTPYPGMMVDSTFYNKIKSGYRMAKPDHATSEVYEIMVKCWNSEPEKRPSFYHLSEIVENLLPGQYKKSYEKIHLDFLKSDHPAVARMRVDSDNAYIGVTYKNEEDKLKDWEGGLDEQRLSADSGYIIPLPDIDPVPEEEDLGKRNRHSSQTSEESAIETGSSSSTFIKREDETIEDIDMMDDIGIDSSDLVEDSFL
# Observed: enzyme activity
# Action: inhibitor
# Tested at: 0.5 µM
# Relative to: control
Compound,remaining activity [%]
Nc1nc(Nc2ccc(S(N)(=O)=O)cc2)nn1C(=O)c1c(F)cccc1F,82
COc1ccc(S(=O)(=O)N(CCO)c2ccccc2CN(C)CC=Cc2ccc(Cl)cc2)cc1,102
CSc1nc(-c2ccnc(N[C@@H](C)c3ccccc3)c2)c(-c2ccc(F)cc2)[nH]1 (racemic),102
Nc1nccc(-c2c(-c3ccc(F)cc3)ncn2C2CCNCC2)n1,95.8
Cc1ccc(NC2=CC(=O)c3sc(C)nc3C2=O)cc1,85.9
Cc1cncc2cccc(S(=O)(=O)N3CCCN(C(=O)CN)C[C@@H]3C)c12,93.5
CC[n+]1c(/C=C/N(C)c2ccccc2)n(-c2ccccc2)c2ccc(-c3nc4ccccc4s3)cc21,95.2
Cc1cc(Nc2nc(-c3ccccc3)nc3ccccc23)n[nH]1,81.6
CCc1[nH]c(-c2ccc(OC)cc2)nc1-c1ccncc1,96.3
Nc1ncnc2c1cnn2-c1ccccc1,103
Oc1ccc(Nc2nc(-c3ccc(Cl)cc3)cs2)cc1,101
Fc1ccc(-c2nc3n(c2-c2ccncc2)CCS3)cc1,98
CC(C)(C)n1nc(Cc2cccc3ccccc23)c2c(N)ncnc21,94.7
COc1cc(Nc2c(C#N)cnc3cc(OCCCN4CCN(C)CC4)c(OC)cc23)c(Cl)cc1Cl,86.9
CC(=O)c1ccc(N2CCOCC2)cc1O,94.7
NC(=O)c1ccc(N(C(N)=O)c2c(F)cccc2F)nc1-c1ccc(F)cc1F,102
CCCC(=O)Oc1ccc2[nH]c(C(=O)c3cc4ccccc4[nH]3)cc2c1,96.6
N#CC(=C(N)Sc1ccc(N)cc1)c1ccccc1C(F)(F)F,99.5
CC#CC(=O)Nc1cc2c(Nc3ccc(F)c(Cl)c3)ncnc2cn1,94.9
O=S(=O)(NCCNC/C=C/c1ccc(Br)cc1)c1cccc2cnccc12,98.8
O=C1NC(=O)C(c2c[nH]c3ccccc23)=C1c1c[nH]c2ccccc12,90.6
O=C1Cc2c([nH]c3ccc([N+](=O)[O-])cc23)-c2ccccc2N1,91.8

# Sample 2
# Structure (SMILES): CCc1c(C)nc(SCC(=O)Nc2nc(-c3ccc(OC)cc3)cs2)[nH]c1=O
# Tested at: 10 µM
# ANO1 del476-501/R541A: Anoctamin-1 (ANO1, Homo sapiens, UniProt Q5XXA6, del476-501/R541A)
# Sequence of UniProt Q5XXA6 (whole entry, unmodified, looked up): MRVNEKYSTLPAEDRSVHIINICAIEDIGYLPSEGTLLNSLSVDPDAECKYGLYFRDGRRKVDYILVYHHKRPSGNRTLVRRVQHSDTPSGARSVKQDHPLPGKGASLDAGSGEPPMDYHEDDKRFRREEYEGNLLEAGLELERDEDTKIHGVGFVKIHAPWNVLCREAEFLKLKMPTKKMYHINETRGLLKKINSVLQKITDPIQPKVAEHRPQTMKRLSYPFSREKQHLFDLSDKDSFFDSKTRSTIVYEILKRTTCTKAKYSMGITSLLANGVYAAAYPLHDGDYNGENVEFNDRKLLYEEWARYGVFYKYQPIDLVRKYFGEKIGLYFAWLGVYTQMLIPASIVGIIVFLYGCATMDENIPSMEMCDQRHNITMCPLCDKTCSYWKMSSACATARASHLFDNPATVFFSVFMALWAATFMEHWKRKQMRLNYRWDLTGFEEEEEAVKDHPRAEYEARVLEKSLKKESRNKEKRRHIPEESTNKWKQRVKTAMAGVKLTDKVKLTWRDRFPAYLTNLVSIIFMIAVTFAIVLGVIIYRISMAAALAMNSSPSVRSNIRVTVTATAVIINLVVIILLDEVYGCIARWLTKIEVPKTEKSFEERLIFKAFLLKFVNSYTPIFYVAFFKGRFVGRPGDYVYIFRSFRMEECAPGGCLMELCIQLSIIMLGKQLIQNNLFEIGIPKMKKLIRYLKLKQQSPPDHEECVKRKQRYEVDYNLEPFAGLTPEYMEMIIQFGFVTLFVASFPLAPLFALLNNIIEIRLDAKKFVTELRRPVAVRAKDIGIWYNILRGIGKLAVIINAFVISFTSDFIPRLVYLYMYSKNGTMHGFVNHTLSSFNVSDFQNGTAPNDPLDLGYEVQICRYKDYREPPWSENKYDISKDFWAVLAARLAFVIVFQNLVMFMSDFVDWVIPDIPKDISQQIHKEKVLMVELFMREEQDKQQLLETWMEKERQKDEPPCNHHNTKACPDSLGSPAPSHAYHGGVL
# ANO1 del476-501: Anoctamin-1 (ANO1, Homo sapiens, UniProt Q5XXA6, del476-501)
# ANO1 del476-501/F628A/F803A: Anoctamin-1 (ANO1, Homo sapiens, UniProt Q5XXA6, del476-501/F628A/F803A)
target,test,system,setting,scale,normalized current
ANO1 del476-501/R541A,"chloride current, inhibitor, whole-cell patch clamp",,R515A pore mutant,,0.974 and 1.03 and 0.983 and 1 and 0.982 and 0.985 and 0.96
ANO1 del476-501,"chloride current, inhibitor",human,wild type,,0.594
ANO1 del476-501/F628A/F803A,"chloride current, inhibitor",human,"mutant, non-pore, F602A/F777A",,0.62
ANO1 del476-501,"ion current, patch clamp",,,relative to: before drug,0.587 and 0.596 and 0.55 and 0.619
ANO1 del476-501/F628A/F803A,"chloride current, inhibitor, whole-cell patch clamp",,F602A/F777A non-pore mutant,,0.603 and 0.605 and 0.585 and 0.655 and 0.636 and 0.638
ANO1 del476-501/R541A,"chloride current, inhibitor",human,pore mutant R515A,,0.994

# Sample 3
# Target: Calcium/calmodulin-dependent protein kinase type II subunit alpha (CAMK2A, Homo sapiens, UniProt Q9UQM7)
# Sequence of UniProt Q9UQM7 (whole entry, looked up): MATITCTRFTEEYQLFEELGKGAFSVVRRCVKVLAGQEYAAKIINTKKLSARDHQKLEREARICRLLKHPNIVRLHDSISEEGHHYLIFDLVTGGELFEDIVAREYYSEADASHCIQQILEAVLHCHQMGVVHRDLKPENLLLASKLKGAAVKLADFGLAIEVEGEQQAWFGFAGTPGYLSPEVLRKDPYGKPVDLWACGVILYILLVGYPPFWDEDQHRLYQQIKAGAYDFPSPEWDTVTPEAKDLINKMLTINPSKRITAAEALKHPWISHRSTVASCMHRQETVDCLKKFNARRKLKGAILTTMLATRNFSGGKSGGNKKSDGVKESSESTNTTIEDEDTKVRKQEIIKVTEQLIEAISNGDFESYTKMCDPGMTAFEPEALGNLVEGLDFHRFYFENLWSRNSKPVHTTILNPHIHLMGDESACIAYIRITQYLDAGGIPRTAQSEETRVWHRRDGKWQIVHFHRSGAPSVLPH
# Observed: enzyme activity
# Action: inhibitor
# Tested at: 10 µM
SMILES,inhibition
COc1ccc(/C=C/C(=O)CC(=O)/C=C/c2ccc(OC)c(OC)c2)cc1,-6%
NC(=O)N/N=C/c1ccc([N+](=O)[O-])o1,8%
Cc1ccccc1N1CCN(CCc2nnc3n2CCCC3)CC1,-11%
CC(C)OC(=O)CCC/C=C\C[C@@H]1[C@@H](CC[C@@H](O)CCc2ccccc2)[C@H](O)C[C@@H]1O,7%
O=C1O[C@H]([C@@H](O)CO)[C@H](O)[C@@H]1O,-15%
COc1cnc(-n2cnc(C)n2)c2c1c(C(=O)C(=O)N1CCN(C(=O)c3ccccc3)CC1)cn2COP(=O)(O)O,-0.08% and -0.1%
O=C(O)C[C@H](C(=O)O)[C@H]1c2c(cc(O)c(O)c2O)C(=O)O[C@@H]1C(=O)O,-37%
C[C@@]12C[C@@]3(O)O[C@@H](O1)[C@]1(COC(=O)c4ccc(O)cc4)[C@H]3C[C@@]12O[C@@H]1O[C@H](CO)[C@@H](O)[C@H](O)[C@H]1O,24%
CC(=O)O[C@]12CCC(C(=O)O)=CC[C@]13CC[C@H]2[C@@](C)(/C=C/C=C(\C)C(=O)O)OC3=O,-36%
C=C1CCC2(C(C)C)CC12 (stereo not drawn),2%
N[C@@H](CCS)C(=O)O,-1%
Nc1nc(F)nc2c1ncn2[C@@H]1O[C@H](COP(=O)(O)O)[C@@H](O)[C@@H]1O,-11%
Cc1c(C(C)C)c(=O)n(-c2ccccc2)n1C,-13%
O=C(CO)[C@@H](O)[C@H](O)[C@H](O)COP(=O)(O)O,-8%
CCCC/C=C\CCCCCCCC(=O)O,-116%
NC(N)=NCCC[C@@H](N)C(=O)N[C@@H](CCCN=C(N)N)C(=O)N1CCC[C@H]1C(=O)N1C[C@H](O)C[C@H]1C(=O)NCC(=O)N[C@@H](Cc1cccs1)C(=O)N[C@@H](CO)C(=O)N1Cc2ccccc2C[C@@H]1C(=O)N1[C@H](C(=O)N[C@@H](CCCN=C(N)N)C(=O)O)C[C@@H]2CCCC[C@@H]21,-6%

# Sample 4
# SMILES: O=C(NNS(=O)(=O)c1ccccc1F)c1cc(F)cc(-c2ccccn2)c1
# Tested at: 10 µM
target,observed,inhibition [%]
"ADRB1 (Homo sapiens, UniProt P08588)",cell-free assay,-0.13
"HRH1 (Homo sapiens, UniProt P35367)",cell-free assay,-8.33
"HRH3 (Homo sapiens, UniProt Q9Y5N1)",cell-free assay,-20.5
"HRH2 (Homo sapiens, UniProt P25021)",cell-free assay,5.32
"ADRA2A (Homo sapiens, UniProt P08913)",cell-free assay,-14.9
"DRD1 (Homo sapiens, UniProt P21728)",cell-free assay,-3.67
"ADRB2 (Homo sapiens, UniProt P07550)",cell-free assay,13.2
"HTR7 (Homo sapiens, UniProt P34969)",cell-free assay,-3.75
"ADRA1B (Homo sapiens, UniProt P35368)",cell-free assay,7.18
"ADRB3 (Homo sapiens, UniProt P13945)",cell-free assay,16.3
"ADRA1A (Homo sapiens, UniProt P35348)",cell-free assay,9.59
"SIGMAR1 (Homo sapiens, UniProt Q99720)",cell-free assay,35.7
"HTR6 (Homo sapiens, UniProt P50406)",cell-free assay,-20.2
"TMEM97 (Homo sapiens, UniProt Q5BJF2)",cell-free assay,19.9
"HTR1B (Homo sapiens, UniProt P28222)",ligand displacement,13.6
"DRD2 (Homo sapiens, UniProt P14416)",cell-free assay,79.6
"CHRM4 (Homo sapiens, UniProt P08173)",cell-free assay,20.4
"DRD3 (Homo sapiens, UniProt P35462)",cell-free assay,4.97
"CHRM5 (Homo sapiens, UniProt P08912)",cell-free assay,-8.87
"ADRA2C (Homo sapiens, UniProt P18825)",cell-free assay,10.2
"ADRA1D (Homo sapiens, UniProt P25100)",cell-free assay,3.2
"DRD4 (Homo sapiens, UniProt P21917)",cell-free assay,23.8

# A few entries again (sample 2):
target,test,system,setting,scale,normalized current
ANO1 del476-501/R541A,"chloride current, inhibitor, whole-cell patch clamp",,R515A pore mutant,,0.974 and 1.03 and 0.983 and 1 and 0.982 and 0.985 and 0.96
ANO1 del476-501,"chloride current, inhibitor",human,wild type,,0.594
ANO1 del476-501/F628A/F803A,"chloride current, inhibitor",human,"mutant, non-pore, F602A/F777A",,0.62
ANO1 del476-501,"ion current, patch clamp",,,relative to: before drug,0.587 and 0.596 and 0.55 and 0.619
ANO1 del476-501/F628A/F803A,"chloride current, inhibitor, whole-cell patch clamp",,F602A/F777A non-pore mutant,,0.603 and 0.605 and 0.585 and 0.655 and 0.636 and 0.638
ANO1 del476-501/R541A,"chloride current, inhibitor",human,pore mutant R515A,,0.994
